# Measurements gathered from unrelated publications.
# Protocols differ between the studies behind these lines. Numbers after ± are the reported error.
# Si: Sucrase-isomaltase, intestinal (Si, Rattus norvegicus, UniProt P23739)
# Sequence of UniProt P23739 (whole entry, looked up): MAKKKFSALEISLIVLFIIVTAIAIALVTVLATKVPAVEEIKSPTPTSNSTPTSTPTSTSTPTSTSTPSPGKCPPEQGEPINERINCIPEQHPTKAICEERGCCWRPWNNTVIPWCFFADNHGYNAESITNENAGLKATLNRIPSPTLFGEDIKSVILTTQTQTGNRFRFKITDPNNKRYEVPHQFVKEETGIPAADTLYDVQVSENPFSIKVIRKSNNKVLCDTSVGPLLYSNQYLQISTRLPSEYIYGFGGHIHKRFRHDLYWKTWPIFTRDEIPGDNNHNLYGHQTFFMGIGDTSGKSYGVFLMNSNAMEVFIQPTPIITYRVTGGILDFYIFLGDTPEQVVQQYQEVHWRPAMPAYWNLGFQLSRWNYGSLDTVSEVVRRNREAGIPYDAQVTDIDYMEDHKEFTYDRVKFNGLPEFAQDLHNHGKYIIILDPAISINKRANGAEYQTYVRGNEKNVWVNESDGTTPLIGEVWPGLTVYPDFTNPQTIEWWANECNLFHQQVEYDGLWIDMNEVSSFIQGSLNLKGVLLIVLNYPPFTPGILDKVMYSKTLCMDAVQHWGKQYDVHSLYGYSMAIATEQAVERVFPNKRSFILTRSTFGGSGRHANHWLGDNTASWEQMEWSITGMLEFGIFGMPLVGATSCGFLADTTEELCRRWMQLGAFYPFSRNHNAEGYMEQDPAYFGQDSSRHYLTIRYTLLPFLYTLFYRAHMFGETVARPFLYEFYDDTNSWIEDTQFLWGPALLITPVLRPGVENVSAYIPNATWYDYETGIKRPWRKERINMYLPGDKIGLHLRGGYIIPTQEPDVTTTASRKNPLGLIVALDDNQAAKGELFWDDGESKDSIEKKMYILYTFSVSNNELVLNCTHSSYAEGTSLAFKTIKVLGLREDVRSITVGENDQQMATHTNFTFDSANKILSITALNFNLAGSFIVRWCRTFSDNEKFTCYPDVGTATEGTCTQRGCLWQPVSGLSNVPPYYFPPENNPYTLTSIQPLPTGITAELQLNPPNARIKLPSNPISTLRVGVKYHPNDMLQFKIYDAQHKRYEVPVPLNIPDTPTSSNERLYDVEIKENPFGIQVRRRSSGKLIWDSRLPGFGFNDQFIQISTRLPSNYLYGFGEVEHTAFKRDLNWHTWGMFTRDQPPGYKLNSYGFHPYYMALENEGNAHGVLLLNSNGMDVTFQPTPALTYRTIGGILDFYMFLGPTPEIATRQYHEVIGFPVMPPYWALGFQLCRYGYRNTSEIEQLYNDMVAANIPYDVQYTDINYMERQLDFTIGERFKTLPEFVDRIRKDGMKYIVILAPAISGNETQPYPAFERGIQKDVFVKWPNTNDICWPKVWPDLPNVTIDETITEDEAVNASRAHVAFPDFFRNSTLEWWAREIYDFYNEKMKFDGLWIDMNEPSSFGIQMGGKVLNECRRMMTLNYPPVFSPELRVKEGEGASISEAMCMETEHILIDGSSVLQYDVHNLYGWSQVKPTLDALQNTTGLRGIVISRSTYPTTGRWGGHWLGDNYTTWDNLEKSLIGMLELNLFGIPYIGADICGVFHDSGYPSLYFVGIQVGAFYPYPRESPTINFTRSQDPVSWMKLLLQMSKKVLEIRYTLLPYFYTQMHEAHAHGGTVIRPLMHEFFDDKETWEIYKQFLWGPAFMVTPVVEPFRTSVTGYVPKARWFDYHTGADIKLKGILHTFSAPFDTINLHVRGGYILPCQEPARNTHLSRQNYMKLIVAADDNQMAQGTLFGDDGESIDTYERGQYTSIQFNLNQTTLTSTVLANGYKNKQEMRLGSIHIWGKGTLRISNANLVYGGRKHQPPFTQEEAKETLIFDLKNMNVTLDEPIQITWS
# DRD3: D(3) dopamine receptor (DRD3, Homo sapiens, UniProt P35462)
# Sequence of UniProt P35462 (whole entry, looked up): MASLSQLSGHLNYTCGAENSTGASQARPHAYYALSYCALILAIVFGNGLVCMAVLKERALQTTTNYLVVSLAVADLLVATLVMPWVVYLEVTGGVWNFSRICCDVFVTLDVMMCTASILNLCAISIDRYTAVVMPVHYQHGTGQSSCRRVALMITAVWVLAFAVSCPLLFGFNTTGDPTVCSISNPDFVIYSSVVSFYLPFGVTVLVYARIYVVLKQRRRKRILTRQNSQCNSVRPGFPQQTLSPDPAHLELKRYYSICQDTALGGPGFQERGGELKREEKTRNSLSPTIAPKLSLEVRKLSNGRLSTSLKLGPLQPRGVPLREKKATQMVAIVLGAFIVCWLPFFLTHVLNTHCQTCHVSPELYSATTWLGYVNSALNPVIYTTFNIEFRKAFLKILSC
# CNR2: Cannabinoid receptor 2 (CNR2, Homo sapiens, UniProt P34972)
# Sequence of UniProt P34972 (whole entry, unmodified, looked up): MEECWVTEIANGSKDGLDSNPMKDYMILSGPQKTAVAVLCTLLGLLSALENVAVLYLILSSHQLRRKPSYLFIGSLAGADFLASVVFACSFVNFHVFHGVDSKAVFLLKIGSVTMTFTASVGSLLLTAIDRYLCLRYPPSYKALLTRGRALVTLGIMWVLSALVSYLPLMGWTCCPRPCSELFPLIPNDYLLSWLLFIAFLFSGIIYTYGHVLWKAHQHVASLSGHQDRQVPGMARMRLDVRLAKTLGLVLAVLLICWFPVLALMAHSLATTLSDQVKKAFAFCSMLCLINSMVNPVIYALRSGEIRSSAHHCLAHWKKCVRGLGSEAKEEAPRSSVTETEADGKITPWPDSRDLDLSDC
# CNR1: Cannabinoid receptor 1 (CNR1, Homo sapiens, UniProt P21554)
# Sequence of UniProt P21554 (whole entry, unmodified, looked up): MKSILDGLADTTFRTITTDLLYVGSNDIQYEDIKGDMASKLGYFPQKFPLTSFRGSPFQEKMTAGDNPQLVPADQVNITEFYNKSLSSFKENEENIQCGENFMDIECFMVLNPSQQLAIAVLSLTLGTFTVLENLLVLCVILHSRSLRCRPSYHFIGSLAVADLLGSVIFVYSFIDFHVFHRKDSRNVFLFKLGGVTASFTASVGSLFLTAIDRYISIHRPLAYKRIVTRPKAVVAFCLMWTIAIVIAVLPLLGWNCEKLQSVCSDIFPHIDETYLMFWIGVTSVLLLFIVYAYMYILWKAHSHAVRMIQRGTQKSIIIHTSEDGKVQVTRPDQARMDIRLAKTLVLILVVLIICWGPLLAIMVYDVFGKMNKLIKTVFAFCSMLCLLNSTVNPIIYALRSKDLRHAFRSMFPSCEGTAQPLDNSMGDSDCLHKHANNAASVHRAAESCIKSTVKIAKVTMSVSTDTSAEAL
# Sequence of UniProt P59676 (whole entry, looked up): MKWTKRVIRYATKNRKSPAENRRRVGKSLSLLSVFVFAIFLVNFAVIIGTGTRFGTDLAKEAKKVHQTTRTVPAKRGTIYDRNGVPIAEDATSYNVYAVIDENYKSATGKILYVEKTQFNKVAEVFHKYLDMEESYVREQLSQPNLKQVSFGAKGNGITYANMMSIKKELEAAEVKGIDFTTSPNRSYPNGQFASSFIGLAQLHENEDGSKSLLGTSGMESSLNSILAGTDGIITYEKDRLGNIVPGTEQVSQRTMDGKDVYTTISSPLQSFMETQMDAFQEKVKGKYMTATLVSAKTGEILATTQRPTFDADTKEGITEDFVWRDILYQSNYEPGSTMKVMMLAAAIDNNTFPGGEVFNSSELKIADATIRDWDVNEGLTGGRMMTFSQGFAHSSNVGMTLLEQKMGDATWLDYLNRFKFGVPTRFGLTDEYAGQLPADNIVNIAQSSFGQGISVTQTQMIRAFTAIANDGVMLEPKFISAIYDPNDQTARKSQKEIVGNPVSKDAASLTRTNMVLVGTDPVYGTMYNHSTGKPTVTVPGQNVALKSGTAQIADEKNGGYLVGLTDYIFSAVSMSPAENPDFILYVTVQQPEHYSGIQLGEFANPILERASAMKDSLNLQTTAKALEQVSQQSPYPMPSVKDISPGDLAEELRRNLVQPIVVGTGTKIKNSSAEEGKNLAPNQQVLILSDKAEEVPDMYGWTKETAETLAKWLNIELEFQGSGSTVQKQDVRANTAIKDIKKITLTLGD
# Sequence of UniProt Q15910 (whole entry, looked up): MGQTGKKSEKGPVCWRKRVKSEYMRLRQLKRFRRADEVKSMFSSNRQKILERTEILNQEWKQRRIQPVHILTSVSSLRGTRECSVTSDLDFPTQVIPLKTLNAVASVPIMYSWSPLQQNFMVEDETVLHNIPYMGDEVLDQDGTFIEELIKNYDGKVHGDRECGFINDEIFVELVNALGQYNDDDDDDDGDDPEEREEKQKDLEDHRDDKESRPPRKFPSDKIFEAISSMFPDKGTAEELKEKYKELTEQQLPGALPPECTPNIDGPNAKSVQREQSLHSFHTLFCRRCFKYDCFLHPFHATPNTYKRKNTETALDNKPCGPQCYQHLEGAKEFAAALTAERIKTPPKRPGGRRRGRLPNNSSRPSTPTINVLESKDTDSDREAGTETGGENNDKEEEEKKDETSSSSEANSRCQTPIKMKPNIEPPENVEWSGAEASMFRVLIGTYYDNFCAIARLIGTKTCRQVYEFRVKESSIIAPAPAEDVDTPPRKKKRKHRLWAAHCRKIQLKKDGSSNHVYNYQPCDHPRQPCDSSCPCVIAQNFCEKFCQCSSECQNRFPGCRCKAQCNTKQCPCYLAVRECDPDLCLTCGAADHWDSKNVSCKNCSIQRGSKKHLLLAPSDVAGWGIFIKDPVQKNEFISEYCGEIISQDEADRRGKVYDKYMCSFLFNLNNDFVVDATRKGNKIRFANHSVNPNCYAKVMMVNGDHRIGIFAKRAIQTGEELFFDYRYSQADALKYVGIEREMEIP
# Sequence of UniProt P18754 (whole entry, looked up): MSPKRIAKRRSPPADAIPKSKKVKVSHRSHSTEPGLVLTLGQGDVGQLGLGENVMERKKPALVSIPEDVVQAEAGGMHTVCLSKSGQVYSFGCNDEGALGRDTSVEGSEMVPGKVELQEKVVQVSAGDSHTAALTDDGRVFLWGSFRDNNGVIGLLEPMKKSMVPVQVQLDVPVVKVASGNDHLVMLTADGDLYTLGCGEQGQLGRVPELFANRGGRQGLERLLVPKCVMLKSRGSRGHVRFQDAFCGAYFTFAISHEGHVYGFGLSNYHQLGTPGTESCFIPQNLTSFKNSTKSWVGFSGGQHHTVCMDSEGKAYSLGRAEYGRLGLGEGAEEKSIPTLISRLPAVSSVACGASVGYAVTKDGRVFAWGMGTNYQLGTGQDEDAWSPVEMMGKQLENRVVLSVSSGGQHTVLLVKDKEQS
Compound,tested on,test,test system,setting,endpoint,result
O=C1NC2(CC2)COc2ncc(F)cc2[C@H]2COCCN2c2ccn3ncc1c3n2,,,"Sprague-Dawley rat, male, adrenals","oral, 10 mg/kg/day, 4 weeks, end of treatment",organ-to-brain weight ratio,3.6 ± 0.59%
CCCc1cc(O)c2c(c1)OC(C)(C)c1ccc(C)cc1-2,Si,"enzyme activity, inhibitor, absorbance",,,IC50,470 µM
c1ccc2c(c1)nc(CNCC13CC4CC(CC(C4)C1)C3)n2CC1CCCCC1,"Penicillin-binding protein 2X (Streptococcus pneumoniae R6, UniProt P59676)","binding, MST",,,Kd,120 µM
CC(C)CC(C(=O)N1CC2(CC1C#N)C(=O)Nc1ccccc12)N(C)C(=O)c1cc2c(F)cc(F)c(F)c2[nH]1 (stereo not shown),"TMPRSS2 (Homo sapiens, UniProt O15393)","enzyme activity, inhibitor",,,IC50,> 100 µM
CC(C)(CO)NCc1ccc(-c2cc(Cl)cc(Cl)c2)o1,DRD3,binding,,,Ki,0.2 µM
CCCCCc1cc(O)c2c(c1)OC(C)(C)C1=C2C(OC)C(C)(O)CC1 (stereo not shown),Si,"enzyme activity, inhibitor, absorbance",,,IC50,470 µM
CCCCCn1cc(C(=O)c2cccc3ccccc23)c2ccccc21,CNR2,"cAMP, agonist",,,EC50,0.00162 µM
O=[N+]([O-])CC(c1cccs1)c1c(-c2ccccc2)[nH]c2ccccc12 (stereo not shown),CNR1,"β-arrestin recruitment, agonist, luciferase",,,EC50,6.51 µM
CC(=O)O[C@@H]1[C@H]2[C@@H](OC(=O)Cc3ccccc3)[C@@H](C)C[C@]2(OC(C)=O)C(=O)/C(C)=C/[C@@H]2[C@H](CC[C@@]13CO3)C2(C)C,"Regulator of chromosome condensation (Homo sapiens, UniProt P18754)","binding, SPR",,,Kd,2.51 µM
OC(CN1CCN(c2nsc3ccccc23)CC1)c1cccs1 (stereo not shown),DRD3,"β-arrestin recruitment, antagonist",,,Ki,0.3 µM
CCC[C@H](C(=O)c1ccccc1)N1CCCC1,"SLC6A4 (Homo sapiens, UniProt P31645, Y95F)","transporter uptake, inhibitor, radiometric",,,Ki,318 µM
Cc1ccc2c(C(C[N+](=O)[O-])c3cccs3)c(-c3ccccc3)[nH]c2c1 (stereo not shown),"CNR1 (Homo sapiens, UniProt P21554, S199A)","β-arrestin recruitment, agonist, luciferase",,,EC50,0.34 µM
CCCCCn1cc(C(=O)c2cccc3c2CC(C)(C)C3)c2ccccc21,"CNR2 (Homo sapiens, UniProt P34972, L182I)","cAMP, agonist, BRET",,,EC50,0.00162 µM
COc1ccccc1C(C[N+](=O)[O-])c1c(-c2ccccc2)[nH]c2ccccc12 (stereo not shown),"Cannabinoid receptor 1, with Gi1 (CNR1, Homo sapiens, UniProt P21554)","Gi1 dissociation, agonist, BRET",HEK293,,EC50,0.32 ± 0.03 µM
COc1cc(C)[nH]c(=O)c1CNC(=O)c1c(C)n([C@H](C)[C@H]2CC[C@H](N3CC(OC)C3)CC2)c2ccccc12,"Histone-lysine N-methyltransferase EZH2, PRC2 pentameric complex (EZH2, Homo sapiens, UniProt Q15910)","enzyme activity, inhibitor",,together with: H3K27me3 activating peptide,IC50,0.00028 µM
COc1cccc(C(C[N+](=O)[O-])c2c(-c3ccccc3)[nH]c3ccccc23)c1 (stereo not shown),CNR1,"G protein activation, agonist, BRET",,,EC50,1.98 µM
CCCCCn1cc(C(=O)c2ccc3c(c2)CC(C)(C)C3)c2ccccc21,CNR2,"cAMP, agonist",,,EC50,0.0331 µM
CCN(CC)C(=O)c1ccc(C(c2cccc(O)c2)N2CC(C)N(Cc3ccccc3)CC2C)cc1 (stereo not shown),"OPRD1 (Homo sapiens, UniProt P41143, W274A)",,,,Ki,0.00071 ± 0.00015 µM
CCCNC(=O)C1CCCN(CCOc2ccc(Cl)cc2)C1 (stereo not shown),DRD3,binding,,,Ki,0.2 µM
CC[C@H](C)[C@H](NC(=O)[C@H](CO)NC(=O)[C@H](CC(N)=O)NC(=O)[C@H](CC(C)C)NC(=O)[C@H](Cc1ccc(O)cc1)NC(=O)[C@H](CCCCN)NC(=O)[C@H](CCCCN)NC(=O)[C@@H](NC(=O)[C@H](C)NC(=O)[C@H](CCSC)NC(=O)[C@H](CCC(N)=O)NC(=O)[C@H](CCCCN)NC(=O)[C@H](CCCN=C(N)N)NC(=O)[C@H](CC(C)C)NC(=O)[C@H](CCCN=C(N)N)NC(=O)[C@@H](NC(=O)[C@H](Cc1ccc(O)cc1)NC(=O)[C@H](CC(N)=O)NC(=O)[C@H](CC(=O)O)NC(=O)[C@@H](NC(=O)[C@H](Cc1ccccc1)NC(=O)[C@@H](NC(=O)[C@H](C)NC(=O)[C@H](CC(=O)O)NC(=O)[C@H](CO)NC(=O)[C@@H](N)Cc1c[nH]cn1)C(C)C)[C@@H](C)O)[C@@H](C)O)C(C)C)C(=O)N[C@@H](CC(C)C)C(=O)N[C@@H](CC(N)=O)C(N)=O,"ADCYAP1R1 (Homo sapiens, UniProt P41586, del89-109)","Gs dissociation, downward phase, agonist, BRET2 TRUPATH",COS-7,37 °C,EC50,0.0912 µM
Nc1ncnc2c1c(-c1cnc3[nH]ccc3c1)nn2C1CCCC1,"LYN (Homo sapiens, UniProt P07948)","enzyme activity, inhibitor",,,Ki,0.0091 µM
CCCc1cc(O)c2c(c1)OC(C)(C)C1=C2[C@@H](O)[C@@](C)(O)CC1,Si,"enzyme activity, inhibitor, absorbance",,,IC50,540 µM
O=[N+]([O-])CC(c1ccco1)c1c(-c2ccccc2)[nH]c2ccccc12 (stereo not shown),"CNR1 (Homo sapiens, UniProt P21554, F191A)","G protein activation, agonist, BRET",,,EC50,> 1000 µM
CCN(CC)C(=O)[C@@H]1C=C2c3cccc4c3c(cn4C(=O)c3ccco3)C[C@H]2N(C)C1,"DRD2 (Homo sapiens, UniProt P14416)","ligand displacement, radioligand",,,Ki,> 10 µM
CCCCCc1cc(OCC=C(C)C)c2c(c1)OC(C)(C)C1=C2[C@@H](O)[C@@](C)(O)CC1,Si,"enzyme activity, inhibitor, absorbance",,,IC50,720 µM

# For quick reference, copied from above:
Compound,tested on,test,test system,setting,endpoint,result
CCC[C@H](C(=O)c1ccccc1)N1CCCC1,"SLC6A4 (Homo sapiens, UniProt P31645, Y95F)","transporter uptake, inhibitor, radiometric",,,Ki,318 µM
CCCCCn1cc(C(=O)c2cccc3ccccc23)c2ccccc21,CNR2,"cAMP, agonist",,,EC50,0.00162 µM
